Measured values collected from several papers.
Compare with care: the assays were run in different laboratories. ± marks the error that the study gave.

Compound	target or system	test	system	setting	scale	quantity	result
C[C@]1(CO)Cc2ncn(-c3ccc(C#N)c(Cl)c3)c2C(=O)O1			human, plasma	40 mg once daily, fasted		tmax at steady state	1.5 h
C[C@H]1CN(C(=O)CC#N)[C@]12CCN(c1ncnc3[nH]ccc13)C2			dog female	oral, 0.6 mg/kg repeated daily, 9 months, repeated-dose toxicity study		Cmax at NOAEL	310 ng/mL
CCN1[C@@H](C(=O)NC23CCC(C(=O)O)(CC2)CC3)[C@H](c2cccc(Cl)c2F)[C@]2(C(=O)Nc3cc(Cl)ccc32)C12CCCCC2			patients with advanced solid tumours	oral, dose not given, all doses		any-grade thrombocytopenia incidence	52.4%
N[C@@H]1c2ccccc2OC12CCN(c1cnc3c(N4CCCc5ncccc54)n[nH]c3n1)CC2			patients advanced metastatic solid tumours	oral, 60 mg once daily, RP2D expansion phase		incidence grade ≥3 serious TEAE	30%
CC(C)n1c(C2CCNCC2)nc2c([N+](=O)[O-])c(Br)c(Br)cc21		item: Vomiting	AML patients	125 mg		adverse events causing interruption	2%
CN1CC[C@@H](c2c(O)cc(O)c3c(=O)cc(-c4ccc(C(F)(F)F)cc4Cl)oc23)[C@@H]1CO		item: Fatigue	AML	oral, 150 mg, intermittent dosing		patients with adverse event	25%
O=c1ccc2ncc(=O)n3c2n1C[C@H]3CN1CCC(NCc2cc3c(cn2)OCCC3)CC1			healthy human volunteers, plasma	oral, 1500 mg single dose, geometric mean, alone		AUC(0-t)	17700 ng·h/mL
COc1cc2c(Oc3ccc4[nH]c(C)cc4c3F)ccnc2cc1OCC1(N)CC1			paediatric recurrent refractory sarcoma	12 mg		grade 1 or 2 Hypertension	9.1%
CO[C@H]1C[C@@H]2CC[C@@H](C)[C@@](O)(O2)C(=O)C(=O)N2CCCC[C@H]2C(=O)O[C@H]([C@H](C)C[C@@H]2CC[C@@H](OC(=O)NCCOCCOCCOCCOCCOCCOCCOCCOCCC(=O)N3CCc4cc(Cn5nc(-c6ccc7oc(N)nc7c6)c6c(N)ncnc65)ccc4C3)[C@H](OC)C2)C[C@@H](O)[C@H](C)/C=C(\C)[C@@H](O)[C@@H](OC)C(=O)[C@H](C)C[C@H](C)/C=C/C=C/C=C/1C			patients with advanced solid tumours	intravenous, 1.6 mg/3 mg weekly, any grade		incidence of Dysgeusia TEAE	0%
CCN(CC)Cc1ccc(Nc2ccnc3cc(Cl)ccc23)cc1O	Vero-E6	CellTiter-Glo ATP		72 h, second round 5-point	relative to: DMSO 0%, hyamine -100%, more negative, more toxic	maximum response	-9.14%
O=C(c1ccc(F)c(F)c1Nc1ccc(I)cc1F)N1CC(O)([C@@H]2CCCCN2)C1			human patients	oral, dose not given, dose escalation, suspension		adverse events	100%
CC(C)[C@@H]1NC(=O)CNC(=O)[C@H](CC(N)=O)NC(=O)[C@H](CCCNC(=N)N)NC(=O)[C@H](Cc2ccc(O)cc2)NC(=O)[C@H](C(C)C)NC(=O)[C@@H](NC(=O)[C@@H](NC(=O)[C@H](CC(N)=O)NC(=O)[C@H](Cc2c[nH]c3ccccc23)NC(=O)[C@H](C)NC(=O)[C@H](Cc2ccccc2)NC(=O)CN)C(C)C)CSSC[C@@H](C(=O)N[C@@H](Cc2cnc[nH]2)C(=O)N[C@@H](CCCNC(=N)N)C(=O)N[C@@H](CCCNC(=N)N)C(=O)N[C@@H](C)C(=O)N[C@@H](CC(N)=O)C(N)=O)NC(=O)[C@H](C(C)C)NC(=O)[C@H](CCCNC(=N)N)NC1=O			ICR mice, blood	intraperitoneal, 5 mg/kg, day 5		haematocrit	41.2 ± 0.78%
CCCCCCCCCCCCCCCC(=O)N[C@@H](CCC(=O)NCCCC[C@H](NC(=O)[C@H](CC(=O)O)NC(=O)[C@H](CO)NC(=O)[C@@H](NC(=O)[C@H](Cc1ccccc1)NC(=O)[C@@H](NC(=O)CNC(=O)[C@H](CCC(N)=O)NC(=O)[C@H](CO)NC(=O)[C@@H](N)Cc1c[nH]cn1)[C@@H](C)O)[C@@H](C)O)C(=O)N[C@@H](CO)C(=O)N[C@@H](CCC(=O)O)C(=O)N[C@@H](Cc1ccc(O)cc1)C(=O)N[C@@H](CC(C)C)C(=O)N[C@@H](CC(=O)O)C(=O)N[C@@H](CO)C(=O)N[C@@H](CCC(=O)O)C(=O)N[C@@H](CCCNC(=N)N)C(=O)N[C@@H](C)C(=O)N[C@@H](CCCNC(=N)N)C(=O)N[C@@H](CC(=O)O)C(=O)N[C@@H](Cc1ccccc1)C(=O)N[C@H](C(=O)N[C@@H](C)C(=O)N[C@@H](Cc1c[nH]c2ccccc12)C(=O)N[C@@H](CC(C)C)C(=O)N[C@@H](CCC(=O)O)C(=O)N[C@@H](C)C(=O)NCC(=O)NCC(=O)O)C(C)C)C(=O)O			human, CrCl ≥ 90 mL/min	sc, 100 µg single dose		injection site erythema	12.5%
Cc1cccc(Cn2nc(C3CC3)c3c(NC(=O)c4cnc5cc(OCCN6CCN(C)CC6)ccn45)cccc32)n1		CTCAE v4.03, item: ALT increased	platinum-resistant ovarian cancer patients	oral, dose not given, with: pembrolizumab IV every 3 weeks		all-cause adverse events	36.4%
CC(=O)c1c(C)c2cnc(Nc3ccc(C4CCN(CCS(C)(=O)=O)CC4)cn3)nc2n(C2CCCC2)c1=O			human, plasma	oral, 100 mg twice daily, single dose, monotherapy		CL	1630 mL/min
Cc1ncccc1-c1nc2cc(C(=O)NCCCc3ccccc3)ccc2o1	Vero-E6	CellTiter-Glo ATP		concentration not given, 72 h, retest 8-point duplicates	relative to: DMSO 0%, hyamine -100%, more negative, more toxic	cytotoxicity efficacy	0%
O=[N+]([O-])c1ccc2c(c1)S(=O)(=O)C=C2			male C57BL/6 mice, blood	intraperitoneal, 20 mg/kg, day 8, group average		mean corpuscular volume	52 fL

A few entries again:
Compound	target or system	test	system	setting	scale	quantity	result
Cc1ncccc1-c1nc2cc(C(=O)NCCCc3ccccc3)ccc2o1	Vero-E6	CellTiter-Glo ATP		concentration not given, 72 h, retest 8-point duplicates	relative to: DMSO 0%, hyamine -100%, more negative, more toxic	cytotoxicity efficacy	0%
O=c1ccc2ncc(=O)n3c2n1C[C@H]3CN1CCC(NCc2cc3c(cn2)OCCC3)CC1			healthy human volunteers, plasma	oral, 1500 mg single dose, geometric mean, alone		AUC(0-t)	17700 ng·h/mL
